Measured values gathered from unrelated publications.
Each line is one published result; not all experiments were run side by side.

SMILES	cell line	assay	test system	conditions	how to read	IC50
C[C@@H]1COCCN1c1nc(NCc2cccnc2C(F)(F)F)c2cccnc2n1	cardiomyocytes	mitochondrial membrane potential	–	in vitro toxicology	–	9.5 µM
CC(C)C12OC1C1OC13C1(C)CCC4=C(COC4=O)C1CC1OC13C2OC(=O)CCC(=O)OC1OC(CO)C(O)C(O)C1O (stereo not drawn)	SCC-25	cell growth or viability, XTT	–	47 h	–	1.26 µM
CC[C@H](C)[C@H](NC(=O)[C@H](CCCCN)NC(=O)[C@H](CCCCN)NC(=O)[C@H](CC(C)C)NC(=O)[C@H](CCCCN)NC(=O)[C@H](CCCCN)NC(=O)[C@H](Cc1ccccc1)NC(=O)[C@H](Cc1ccccc1)NC(=O)[C@H](CCCNC(=N)N)NC(=O)[C@H](CCCNC(=N)N)NC(=O)[C@@H](NC(=O)[C@H](CCCCN)NC(=O)[C@H](CCCNC(=N)N)NC(=O)[C@@H](NC(=O)[C@H](Cc1ccc(O)cc1)NC(=O)[C@H](CO)NC(=O)[C@H](CCCNC(=N)N)NC(=O)[C@@H](N)CC(C)C)[C@@H](C)CC)[C@@H](C)CC)C(=O)N[C@@H](CC(C)C)C(=O)N[C@@H](CCCCN)C(=O)N[C@@H](CCCCN)C(N)=O	SAOS-2	cell growth or viability, resazurin	–	–	–	> 20 µM
CC(C)C12OC1C1OC13C1(C)CCC4=C(COC4=O)C1CC1OC13C2OC(=O)CCCOC1OC(CO)C(O)C(O)C1O (stereo not drawn)	SK-BR-3	cell growth or viability, XTT	–	47 h	–	2.16 µM
CC(=O)N[C@H](C(=O)N[C@@H](CCCNC(=N)N)C(=O)N[C@@H](CCCCN)C(=O)N[C@@H](CCCNC(=N)N)C(=O)N[C@H](C(=O)N[C@@]1(C)CCCC=CCCC[C@@](C)(C(=O)N[C@@H](CCC(N)=O)C(=O)N[C@@H](CCC(=O)O)C(=O)N[C@@H](CCCNC(=N)N)C(=O)N[C@@H](CCC(=O)O)C(=O)N[C@@H](CC(C)C)C(=O)N[C@H](C(=O)N[C@@H](CCC(=O)O)C(N)=O)C(C)C)NC(=O)[C@H](CC(C)C)NC(=O)[C@H](CCCNC(=N)N)NC(=O)[C@H](CCCNC(=N)N)NC1=O)[C@@H](C)O)C(C)C	H3255 (EGFR L858R)	cell viability, ATP luminescence	–	18 h	–	> 50 µM
CCOc1c(Cl)cccc1-n1c(CN2CCNCC2)nc2ccccc2c1=O	PANC-1	cell growth or viability, ATP luminescence	–	72 h	–	2.6 µM
Cc1cc(Oc2nc(N3CC[C@@H](c4ccncc4)C3)ncc2F)[nH]n1	A-375	cell proliferation	skin cancer	–	–	61.7 µM
CCCCCCCC(=O)NCCCC[C@H](NC(=O)CCCCCCC)C(=O)N[C@@H](CCCCNC(=O)CCCCCCC)C(=O)NCC(=O)NCC(=O)NCC(=O)N[C@@H](CS)C(=O)N[C@@H](CCCNC(=N)N)C(=O)N[C@@H](CCCCN)C(=O)N1CCC[C@H]1C(N)=O	IPEC-J2	cell growth or viability, MTT	–	24 h	–	127 µM
CN(C)C(=O)[C@@H](NC(=O)c1cc(-c2ccnn2C)ccc1-c1ccc(C(F)(F)F)cc1)c1cccc(C(F)(F)F)c1	NKL effector, Ba/F3-MICB target	NKG2D-mediated cell killing, inhibitor	–	–	–	0.6 µM
CC(=O)N[C@H](C(=O)N[C@@H](CCCNC(=N)N)C(=O)N[C@@H](CCCCN)C(=O)N[C@@H](CCCNC(=N)N)C(=O)N[C@]1(C)CCCCCCC=CCCC[C@@](C)(C(=O)N[C@@H](CCCNC(=N)N)C(=O)N[C@@H](CCC(=O)O)C(=O)N[C@@H](CC(C)C)C(=O)N[C@H](C(=O)N[C@@H](CCC(=O)O)C(N)=O)C(C)C)NC(=O)[C@H](CCC(N)=O)NC(=O)[C@H](C)NC(=O)[C@H](C)NC(=O)[C@H](CCCNC(=N)N)NC(=O)[C@H](CCCNC(=N)N)NC(=O)[C@H](C)NC1=O)C(C)C	H3255 (EGFR L858R)	cell viability	–	18 h, serum-free	–	5.6 µM
O=C(c1cc(Cc2n[nH]c(=O)c3ccccc23)ccc1F)N1CC(CNC2CC2)C1	OVCAR-3	–	–	–	–	0.0058 µM
CCOc1ccccc1-n1c(CN2CCNCC2)nc2ccc(Cl)cc2c1=O	PANC-1	cell growth or viability, ATP luminescence	–	72 h	–	1.2 µM
Cc1ccc(C2=CC(C)(C)Oc3ccc(-c4ccc(-c5ccc(C(=O)O)cc5)[nH]4)cc32)cc1	human lung fibroblast	–	–	–	–	26.1 µM
CC(=O)N[C@H](C(=O)N[C@@H](CCCNC(=N)N)C(=O)N[C@@H](CCCCN)C(=O)N[C@@H](CCCNC(=N)N)C(=O)N[C@H](C(=O)N[C@@H](CC(C)C)C(=O)N[C@@H](CCCNC(=N)N)C(=O)N[C@]1(C)CCCC=CCCC[C@@](C)(C(=O)N[C@@H](CCC(=O)O)C(=O)N[C@@H](CCCNC(=N)N)C(=O)N[C@@H](CCC(=O)O)C(=O)N[C@@H](CC(C)C)C(=O)N[C@H](C(=O)N[C@@H](CCC(=O)O)C(N)=O)C(C)C)NC(=O)[C@H](CC(C)C)NC(=O)[C@H](CC(C)C)NC1=O)[C@@H](C)O)C(C)C	SK-N-MC	cell viability	–	18 h, serum-free	–	> 10 µM
[Cl][Au-]1([Cl])[c]2ccccc2-c2cccc[n+]21	A-375	cell growth or viability, resazurin	–	72 h	–	7 µM
CCCCCCCC(=O)NCCCC[C@H](NC(=O)CCCCCCC)C(=O)N[C@@H](CCCCNC(=O)CCCCCCC)C(=O)NCC(=O)NCC(=O)NCC(=O)N[C@@H](CS)C(=O)N[C@@H](CCCNC(=N)N)C(=O)N[C@@H](CCCCN)C(=O)N1CCC[C@H]1C(=O)N[C@@H](CS)C(=O)N[C@@H](CCCNC(=N)N)C(=O)N[C@@H](CCCCN)C(=O)N1CCC[C@H]1C(N)=O	human red blood cells	haemolysis	–	pH 7.4, 37 °C	reference: Triton X-100	332 µM
Cc1sc2c(c1C)C(c1ccc(-c3cccc(NC(=O)c4cnn5cccnc45)c3)cc1)=N[C@@H](CC(N)=O)c1nnc(C)n1-2	MV4-11	cell growth or viability, ATP luminescence	–	72 h	–	0.0059 µM
CC1CCC2C(C)C(OC(=O)CCC(=O)OC3C(C)OC(n4cc(F)c(=O)[nH]c4=O)C3OC(=O)CCC(=O)OC3OC4OC5(C)CCC6C(C)CCC(C3C)C46OO5)OC3OC4(C)CCC1C32OO4 (stereo not drawn)	Hep3B	cell growth or viability, CCK-8	–	–	–	33.6 µM
CCOc1ccccc1-n1c(CN2CCNCC2)nc2cc(I)ccc2c1=O	PANC-1	cell growth or viability, ATP luminescence	–	72 h	–	0.68 µM
CCC1(c2ccc(NC(=O)CCC(=O)OC3OC4OC5(C)CCC6C(C)CCC(C3C)C46OO5)cc2)CCC(=O)NC1=O (mixture of isomers)	DU-145	cell growth or viability, CCK-8	–	–	–	> 50 µM
CCOc1ccc(F)cc1-n1c(CN2CCNCC2)nc2ccccc2c1=O	PANC-1	cell growth or viability, ATP luminescence	–	72 h	–	0.43 µM

For quick reference, copied from above:
SMILES	cell line	assay	test system	conditions	how to read	IC50
Cc1cc(Oc2nc(N3CC[C@@H](c4ccncc4)C3)ncc2F)[nH]n1	A-375	cell proliferation	skin cancer	–	–	61.7 µM
CC(C)C12OC1C1OC13C1(C)CCC4=C(COC4=O)C1CC1OC13C2OC(=O)CCCOC1OC(CO)C(O)C(O)C1O (stereo not drawn)	SK-BR-3	cell growth or viability, XTT	–	47 h	–	2.16 µM
